Experimental data collected from several papers.
Positions count from the first letter of the parent shown. Numbers after ± are the reported error.
msl-2 C560G: msl-2 520-570 C560G (Drosophila melanogaster, UniProt P50534)
UniProt P50534, sequence (whole entry, unmodified, looked up): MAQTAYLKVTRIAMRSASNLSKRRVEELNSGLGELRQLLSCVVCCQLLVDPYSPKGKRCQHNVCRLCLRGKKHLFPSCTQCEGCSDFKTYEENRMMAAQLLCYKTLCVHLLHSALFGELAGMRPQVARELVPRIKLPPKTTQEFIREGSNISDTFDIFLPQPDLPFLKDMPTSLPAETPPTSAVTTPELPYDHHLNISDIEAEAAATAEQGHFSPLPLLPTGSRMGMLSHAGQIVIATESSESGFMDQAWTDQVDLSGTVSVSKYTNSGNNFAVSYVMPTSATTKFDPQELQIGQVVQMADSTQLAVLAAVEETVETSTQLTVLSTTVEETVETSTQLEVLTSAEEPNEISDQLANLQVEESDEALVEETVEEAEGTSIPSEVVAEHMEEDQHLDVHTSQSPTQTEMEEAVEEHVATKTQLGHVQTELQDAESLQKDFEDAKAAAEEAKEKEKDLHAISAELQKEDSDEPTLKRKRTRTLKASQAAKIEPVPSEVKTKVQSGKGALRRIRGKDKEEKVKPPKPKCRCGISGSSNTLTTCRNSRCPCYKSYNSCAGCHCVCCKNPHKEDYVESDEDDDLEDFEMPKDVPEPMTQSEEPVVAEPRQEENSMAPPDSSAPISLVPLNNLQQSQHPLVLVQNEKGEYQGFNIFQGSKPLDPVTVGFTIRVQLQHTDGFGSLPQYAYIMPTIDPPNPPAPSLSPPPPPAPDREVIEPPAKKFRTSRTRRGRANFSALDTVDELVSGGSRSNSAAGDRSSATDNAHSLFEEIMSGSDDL
pum: pum 1093-1426 (Drosophila melanogaster, UniProt P25822)
UniProt P25822, sequence (whole entry, looked up): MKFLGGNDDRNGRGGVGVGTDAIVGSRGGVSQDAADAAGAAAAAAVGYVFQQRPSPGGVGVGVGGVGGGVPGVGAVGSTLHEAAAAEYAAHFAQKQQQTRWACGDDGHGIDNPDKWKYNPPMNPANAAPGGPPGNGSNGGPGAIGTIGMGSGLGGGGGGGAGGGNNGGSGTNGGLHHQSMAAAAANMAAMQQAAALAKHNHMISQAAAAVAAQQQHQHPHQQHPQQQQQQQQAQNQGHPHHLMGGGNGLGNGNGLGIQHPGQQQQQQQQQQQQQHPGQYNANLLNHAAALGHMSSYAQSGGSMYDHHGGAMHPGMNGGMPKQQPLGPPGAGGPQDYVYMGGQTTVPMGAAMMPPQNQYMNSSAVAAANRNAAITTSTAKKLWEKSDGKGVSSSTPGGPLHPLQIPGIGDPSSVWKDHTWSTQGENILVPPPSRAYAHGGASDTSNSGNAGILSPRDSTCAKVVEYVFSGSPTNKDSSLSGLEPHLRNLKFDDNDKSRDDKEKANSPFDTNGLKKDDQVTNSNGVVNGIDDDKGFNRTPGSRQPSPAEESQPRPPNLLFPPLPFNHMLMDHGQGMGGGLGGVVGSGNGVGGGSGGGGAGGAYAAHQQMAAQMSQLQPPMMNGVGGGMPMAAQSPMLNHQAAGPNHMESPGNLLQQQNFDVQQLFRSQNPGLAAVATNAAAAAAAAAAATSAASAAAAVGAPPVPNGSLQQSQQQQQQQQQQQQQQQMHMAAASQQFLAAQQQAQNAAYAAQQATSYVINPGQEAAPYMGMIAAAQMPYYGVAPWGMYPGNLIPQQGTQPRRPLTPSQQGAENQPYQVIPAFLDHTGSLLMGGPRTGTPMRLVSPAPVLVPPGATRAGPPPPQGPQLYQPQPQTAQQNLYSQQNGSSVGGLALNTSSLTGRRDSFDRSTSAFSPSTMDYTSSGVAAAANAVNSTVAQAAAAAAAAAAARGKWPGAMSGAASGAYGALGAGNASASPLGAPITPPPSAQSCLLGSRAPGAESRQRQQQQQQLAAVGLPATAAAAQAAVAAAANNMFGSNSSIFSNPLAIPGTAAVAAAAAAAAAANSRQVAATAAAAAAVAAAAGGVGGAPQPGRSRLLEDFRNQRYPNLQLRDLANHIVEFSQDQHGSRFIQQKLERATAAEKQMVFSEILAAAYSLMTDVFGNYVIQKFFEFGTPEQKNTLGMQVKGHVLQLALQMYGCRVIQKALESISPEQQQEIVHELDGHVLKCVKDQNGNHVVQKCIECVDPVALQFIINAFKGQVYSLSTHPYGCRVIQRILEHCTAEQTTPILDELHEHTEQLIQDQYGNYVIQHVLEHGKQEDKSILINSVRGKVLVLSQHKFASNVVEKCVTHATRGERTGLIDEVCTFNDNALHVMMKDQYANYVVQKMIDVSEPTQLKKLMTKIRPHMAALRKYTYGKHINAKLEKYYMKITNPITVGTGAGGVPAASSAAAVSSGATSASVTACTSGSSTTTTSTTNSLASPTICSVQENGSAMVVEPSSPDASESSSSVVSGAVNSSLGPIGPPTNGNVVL
T1: Vegfa residues 27-190 (Rattus norvegicus); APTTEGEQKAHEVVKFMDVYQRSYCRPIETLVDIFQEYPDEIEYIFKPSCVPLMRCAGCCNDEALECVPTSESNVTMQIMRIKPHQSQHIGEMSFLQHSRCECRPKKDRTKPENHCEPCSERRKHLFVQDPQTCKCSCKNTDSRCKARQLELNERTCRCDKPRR
P1: NCAM1 residues 745-753 (Mus musculus); IAVNLCGKA; partner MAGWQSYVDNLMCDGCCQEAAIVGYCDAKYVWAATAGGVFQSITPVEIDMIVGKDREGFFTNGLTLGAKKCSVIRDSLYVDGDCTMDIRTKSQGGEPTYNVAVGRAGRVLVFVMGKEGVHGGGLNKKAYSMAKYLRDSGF
UniProt Q8K3Y3, sequence (whole entry, looked up): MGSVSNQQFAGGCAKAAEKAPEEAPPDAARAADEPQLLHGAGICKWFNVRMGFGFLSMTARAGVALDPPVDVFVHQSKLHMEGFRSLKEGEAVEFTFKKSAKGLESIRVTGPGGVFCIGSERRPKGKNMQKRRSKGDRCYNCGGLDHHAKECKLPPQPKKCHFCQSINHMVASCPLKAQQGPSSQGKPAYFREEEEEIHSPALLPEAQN
UniProt Q9UIF7, sequence (whole entry, unmodified, looked up): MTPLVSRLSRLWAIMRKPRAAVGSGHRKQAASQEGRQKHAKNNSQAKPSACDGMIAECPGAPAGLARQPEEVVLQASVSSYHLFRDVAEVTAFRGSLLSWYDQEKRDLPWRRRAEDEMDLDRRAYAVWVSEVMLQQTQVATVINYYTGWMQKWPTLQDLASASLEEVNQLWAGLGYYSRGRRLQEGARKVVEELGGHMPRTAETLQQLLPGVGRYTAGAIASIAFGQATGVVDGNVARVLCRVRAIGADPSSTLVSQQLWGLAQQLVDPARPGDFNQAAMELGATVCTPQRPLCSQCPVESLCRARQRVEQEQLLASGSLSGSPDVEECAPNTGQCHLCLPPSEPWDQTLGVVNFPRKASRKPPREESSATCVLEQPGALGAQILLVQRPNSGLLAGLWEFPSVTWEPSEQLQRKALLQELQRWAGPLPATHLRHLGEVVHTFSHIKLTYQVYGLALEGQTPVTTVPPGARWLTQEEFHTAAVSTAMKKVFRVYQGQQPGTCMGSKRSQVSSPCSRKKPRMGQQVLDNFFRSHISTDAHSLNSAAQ
UniProt Q9NWB1, sequence (whole entry, unmodified, looked up): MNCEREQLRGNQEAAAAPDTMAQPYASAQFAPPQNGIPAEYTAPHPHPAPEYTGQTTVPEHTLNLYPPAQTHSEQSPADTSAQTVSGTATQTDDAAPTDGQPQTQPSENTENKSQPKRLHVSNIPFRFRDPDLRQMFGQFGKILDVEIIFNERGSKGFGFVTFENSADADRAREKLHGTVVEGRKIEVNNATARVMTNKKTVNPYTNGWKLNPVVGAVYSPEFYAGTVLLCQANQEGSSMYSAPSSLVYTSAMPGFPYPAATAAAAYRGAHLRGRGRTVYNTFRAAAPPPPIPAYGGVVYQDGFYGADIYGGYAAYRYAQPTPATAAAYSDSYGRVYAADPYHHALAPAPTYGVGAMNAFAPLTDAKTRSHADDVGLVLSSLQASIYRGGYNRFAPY
UniProt Q6PI48, sequence (whole entry, looked up): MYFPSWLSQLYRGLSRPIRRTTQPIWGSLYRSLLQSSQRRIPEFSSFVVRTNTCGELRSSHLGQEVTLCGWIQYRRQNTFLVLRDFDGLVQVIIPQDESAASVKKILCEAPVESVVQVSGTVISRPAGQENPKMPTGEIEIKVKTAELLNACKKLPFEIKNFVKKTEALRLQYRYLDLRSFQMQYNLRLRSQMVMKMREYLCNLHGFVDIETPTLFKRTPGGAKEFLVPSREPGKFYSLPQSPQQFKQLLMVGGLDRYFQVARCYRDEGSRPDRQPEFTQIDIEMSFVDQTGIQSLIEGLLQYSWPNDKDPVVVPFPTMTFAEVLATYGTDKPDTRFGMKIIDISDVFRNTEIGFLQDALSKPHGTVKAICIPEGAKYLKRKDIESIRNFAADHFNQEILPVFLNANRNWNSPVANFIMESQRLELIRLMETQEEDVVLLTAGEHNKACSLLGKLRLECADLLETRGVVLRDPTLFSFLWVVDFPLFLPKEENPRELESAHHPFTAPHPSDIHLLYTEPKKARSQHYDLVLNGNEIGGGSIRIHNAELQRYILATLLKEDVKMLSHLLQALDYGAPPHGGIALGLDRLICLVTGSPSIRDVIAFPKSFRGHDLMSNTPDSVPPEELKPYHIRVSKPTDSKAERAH
UniProt Q9QX72, sequence (whole entry, looked up): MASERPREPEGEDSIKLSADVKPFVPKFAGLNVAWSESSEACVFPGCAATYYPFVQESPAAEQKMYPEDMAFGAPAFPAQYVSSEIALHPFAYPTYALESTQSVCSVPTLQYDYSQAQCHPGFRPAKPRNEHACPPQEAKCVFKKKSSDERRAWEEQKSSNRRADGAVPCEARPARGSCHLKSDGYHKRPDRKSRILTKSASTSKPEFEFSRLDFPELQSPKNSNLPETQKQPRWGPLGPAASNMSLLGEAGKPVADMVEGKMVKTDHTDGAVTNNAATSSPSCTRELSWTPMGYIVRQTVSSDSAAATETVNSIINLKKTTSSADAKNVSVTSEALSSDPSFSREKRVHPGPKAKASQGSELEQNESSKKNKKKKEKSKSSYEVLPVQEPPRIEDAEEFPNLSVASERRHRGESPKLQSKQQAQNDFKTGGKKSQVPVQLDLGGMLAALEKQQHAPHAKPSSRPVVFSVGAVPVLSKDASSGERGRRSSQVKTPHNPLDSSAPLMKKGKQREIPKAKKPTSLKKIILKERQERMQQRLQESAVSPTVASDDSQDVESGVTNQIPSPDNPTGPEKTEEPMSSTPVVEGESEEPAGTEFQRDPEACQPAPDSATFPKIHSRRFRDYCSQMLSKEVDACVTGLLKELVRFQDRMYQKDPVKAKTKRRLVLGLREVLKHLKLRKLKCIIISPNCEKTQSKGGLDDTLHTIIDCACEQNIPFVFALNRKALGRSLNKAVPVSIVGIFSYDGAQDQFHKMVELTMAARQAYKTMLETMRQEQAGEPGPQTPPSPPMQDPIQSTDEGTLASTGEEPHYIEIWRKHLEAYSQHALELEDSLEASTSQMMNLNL

With `UAGCUUAUCAGACUGAUGUUGACUGUUGCAUGUCAUGGCAACACCAGUCGAUGGGCUGU (structured RNA)` the Kd was 156 ± 22 nM (RBFOX1 109-208 R118D/E147R/N151S/E152T (Homo sapiens, UniProt Q9NWB1); ITC; folded RNA).
For `ATGAGCGAGATG (dsDNA)`, the Kd was 2700 nM (msl-2 C560G; NMR titration; double-stranded DNA, one strand shown; apparent, stoichiometry fixed).
For `DNA 1 GTCGTGGACTAGGCAAAGAACTTATAGAGCCACTTGAGCACACAGAGG / DNA 2 CTAGTCCACGACTTTTTTTT (dsDNA; 8-oxoG opposite A, three-strand assembly)`, the Kd was 8.86 nM (MUTYH full length assumed Q335H (Homo sapiens, UniProt Q9UIF7); SPR; double-stranded DNA).
For `CAGTGCGACACGGCATGCCTG (dsDNA; blunt; central CpG 5mC both strands)`, the Kd was 14.1 nM (Mecp2 78-164 (Rattus norvegicus, UniProt Q00566); EMSA; double-stranded DNA, one strand shown; NaCl 125 mM).
`GCAGAUUGAGGGUCUAUGAUACCACCCGGUACAGGAGAUAUCUGCA (structured RNA)` has a Kd of 1.3 ± 0.3 nM (Lin28a 119-180 (Mus musculus, UniProt Q8K3Y3); EMSA; folded RNA).
`TCTCAAGAAAAAAAAAAAAAGAC (ssDNA)` gave a Kd of 20200 ± 6580 nM (Apobec2 full length assumed (Mus musculus, UniProt Q9WV35); MST; single-stranded DNA; together with: Mg2+ 5 mM).
`TGCGGCCATCTCTTTCGTTTTGATGTTTCT (dsDNA)` has a Kd of 116 ± 22 nM (msl-2 1-773 (Drosophila melanogaster, UniProt P50534); EMSA; double-stranded DNA, one strand shown).
`TGTGTTAGTTGGGGGGTGACTGTTAAAAGTGCATACCGCCAAAAGATAAAA (dsDNA)` has a Kd of 6.33 nM (POLRMT/TFB2M 43-1230; 21-396 (Homo sapiens); fluorescence anisotropy; double-stranded DNA, one strand shown; together with: ATP 1 mM).
The Kd of `CGGAAUCAGUGAAUGCUUAUACAUCCG (ssRNA; single strand, 2'-F pyrimidines, 2'-OMe purines)` is reported as 0.008 ± 0.01 nM (T1, Vegfa residues 27-190 (Rattus norvegicus); ELONA; modified nucleic acid).
For `GCAGAUUGAGGAUCUAUGAUACCACCCGGUACAGGAGAUAUCUGCA (structured RNA)`, the Kd was 25 ± 7 nM (Lin28a 119-180 (Mus musculus, UniProt Q8K3Y3); EMSA; folded RNA).
For `GGGAGACCUAGCCUCAUAUAAUCGUUGUCCAGAAUUGUAUAUAUUCGUAGCAUAAGUUUUCCAAACAUUAUUUUGUUGUCGAAAAUGGGACGGAAGCCAAUUAAGCCGCUA (ssRNA)`, binding read “binds” (pum; EMSA; RNA).
`GTGTGGGTGTG (ssDNA)` gave a Kd of 140 ± 33 nM (CDC13 1-924 R635A (Saccharomyces cerevisiae, UniProt P32797); filter binding; single-stranded DNA; KCl 750 mM).
`GCAGAUUGAGGGUCUAUGAUACCGCAAGGUACAGGAGAUAUCUGCA (structured RNA)` gave a Kd of 4 ± 1 nM (Lin28a 119-180 (Mus musculus, UniProt Q8K3Y3); EMSA; folded RNA).
`ATATGAGC (dsDNA)` gave a Kd of 55100 nM (msl-2 C560G; NMR titration; double-stranded DNA, one strand shown; apparent).
For `GGGAGACCUAGCCUCAUAUAAUCGUUGUCCAGAAUGGGAUGGAUUCGUAGCAUAAGUUUUCCAAACAUUAUUUUGUUGUCGAAAAUGGGACGGAAGCCAAUUAAGCCGCUA (ssRNA)`, binding read “no binding” (pum; EMSA; RNA).
The signal of `P1 N4Q L5A` is reported as 0.066 OD (PFN2; ELISA; 1.6 µM, read off a plot; higher = more binding).
The Kd of `GCTGAGCTTCTGGTGAAGCTCAGCTCGCGGCAGCTGGTGCTGCCGCG (dsDNA; 5' phosphate)` is reported as 88 nM (PARP2 full length 1-570 (Homo sapiens); fluorescence polarization; folded DNA).
`CACGGACCCCAUGGCAGGGGUGGCGUCUUCAUGAGGGAGGGGCCCAAAGCCCUUGUGGGCGGACCUCCCCUGAGCCUGUCUGAGGGGCCAGCCCUUAGUGCAU (structured RNA (human); stem-loop, kink-turn)` has a Kd of 14 nM (Secisbp2 517-777 (Rattus norvegicus, UniProt Q9QX72); EMSA; apparent, together with: tRNA competitor).
The Kd of `GCTGAGCTTCTGGTGAAGCTCAGCTCGCGGCAGCTGGTGCTGCCGCGA (dsDNA; dumbbell, central nick, 5' phosphate)` is reported as 37 nM (PARP2 full length 1-570 (Homo sapiens); fluorescence polarization; folded DNA).
The Kd of `GGAGCGGUAGUUCAGUCGGUUAGAAUACCUGCCUGUCACGCAGGGGGUCGCGGGUUCGAGUCCCGUCCGUUCCGCCA (tRNA (Escherichia coli); cloverleaf, unmodified)` is reported as 240 ± 10 nM (DARS2 41-645 (Homo sapiens, UniProt Q6PI48); ITC; folded RNA).
For `GCAGAUUGAGAGUCUAUGAUACCACCCGGUACAGGAGAUAUCUGCA (structured RNA)`, the Kd was 3 ± 1 nM (Lin28a 119-180 (Mus musculus, UniProt Q8K3Y3); EMSA; folded RNA).
The signal of `P1 L5A C6S` is reported as 0.052 OD (PFN2; ELISA; 3.1 µM, read off a plot; higher = more binding).
The Kd of `GCAGGCUGAGGUAGUAGUUUGUGCAGACGAAAGUCUGCACAGGCCACUGCCUUGCCAGC (structured RNA)` is reported as 9 ± 3 nM (Lin28a 1-209 (Mus musculus, UniProt Q8K3Y3); EMSA; folded RNA).
`CATTAGCGCTGTTCCAAAATTTTCGCCTCACTGTGCGAAGCTATTGGAATGGAGTGTATT (dsDNA)` has a Kd of 17 ± 2 nM (SPT10 1-396 (Saccharomyces cerevisiae, UniProt P35208); EMSA; double-stranded DNA, one strand shown).

Repeated from above:
`GCAGAUUGAGGGUCUAUGAUACCACCCGGUACAGGAGAUAUCUGCA (structured RNA)` has a Kd of 1.3 ± 0.3 nM (Lin28a 119-180 (Mus musculus, UniProt Q8K3Y3); EMSA; folded RNA).
`TCTCAAGAAAAAAAAAAAAAGAC (ssDNA)` gave a Kd of 20200 ± 6580 nM (Apobec2 full length assumed (Mus musculus, UniProt Q9WV35); MST; single-stranded DNA; together with: Mg2+ 5 mM).
`TGCGGCCATCTCTTTCGTTTTGATGTTTCT (dsDNA)` has a Kd of 116 ± 22 nM (msl-2 1-773 (Drosophila melanogaster, UniProt P50534); EMSA; double-stranded DNA, one strand shown).
